Assay results from different studies.
Each line is one published result; not all experiments were run side by side. Numbers after ± are the reported error.
Chain of UniProt Q9UNQ0 (whole entry, looked up): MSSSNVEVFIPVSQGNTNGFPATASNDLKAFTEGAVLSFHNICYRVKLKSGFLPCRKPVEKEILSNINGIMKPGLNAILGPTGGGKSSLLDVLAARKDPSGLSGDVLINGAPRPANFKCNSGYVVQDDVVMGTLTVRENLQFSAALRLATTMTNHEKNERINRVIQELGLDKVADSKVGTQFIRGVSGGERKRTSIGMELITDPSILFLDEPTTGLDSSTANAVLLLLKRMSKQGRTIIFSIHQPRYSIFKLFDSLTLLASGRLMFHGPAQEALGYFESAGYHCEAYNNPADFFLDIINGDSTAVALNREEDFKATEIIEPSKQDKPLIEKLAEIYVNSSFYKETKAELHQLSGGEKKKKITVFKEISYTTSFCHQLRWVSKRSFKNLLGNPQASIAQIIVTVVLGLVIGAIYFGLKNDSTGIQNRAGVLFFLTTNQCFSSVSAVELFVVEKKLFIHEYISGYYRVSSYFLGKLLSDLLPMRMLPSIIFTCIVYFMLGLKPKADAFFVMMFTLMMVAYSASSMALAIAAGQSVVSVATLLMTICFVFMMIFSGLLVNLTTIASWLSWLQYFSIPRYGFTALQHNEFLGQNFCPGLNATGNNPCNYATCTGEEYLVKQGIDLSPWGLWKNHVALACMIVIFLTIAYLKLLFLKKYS
Chain of UniProt P0A725 (whole entry, looked up): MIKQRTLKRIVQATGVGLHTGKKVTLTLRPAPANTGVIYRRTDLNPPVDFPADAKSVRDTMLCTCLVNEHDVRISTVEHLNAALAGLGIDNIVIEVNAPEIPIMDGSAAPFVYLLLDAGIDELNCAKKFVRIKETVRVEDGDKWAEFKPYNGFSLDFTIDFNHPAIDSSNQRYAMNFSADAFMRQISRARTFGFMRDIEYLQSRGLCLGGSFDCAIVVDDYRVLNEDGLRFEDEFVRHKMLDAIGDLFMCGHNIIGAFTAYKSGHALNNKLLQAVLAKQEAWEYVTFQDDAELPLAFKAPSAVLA
Chain of UniProt P08684 (whole entry, looked up): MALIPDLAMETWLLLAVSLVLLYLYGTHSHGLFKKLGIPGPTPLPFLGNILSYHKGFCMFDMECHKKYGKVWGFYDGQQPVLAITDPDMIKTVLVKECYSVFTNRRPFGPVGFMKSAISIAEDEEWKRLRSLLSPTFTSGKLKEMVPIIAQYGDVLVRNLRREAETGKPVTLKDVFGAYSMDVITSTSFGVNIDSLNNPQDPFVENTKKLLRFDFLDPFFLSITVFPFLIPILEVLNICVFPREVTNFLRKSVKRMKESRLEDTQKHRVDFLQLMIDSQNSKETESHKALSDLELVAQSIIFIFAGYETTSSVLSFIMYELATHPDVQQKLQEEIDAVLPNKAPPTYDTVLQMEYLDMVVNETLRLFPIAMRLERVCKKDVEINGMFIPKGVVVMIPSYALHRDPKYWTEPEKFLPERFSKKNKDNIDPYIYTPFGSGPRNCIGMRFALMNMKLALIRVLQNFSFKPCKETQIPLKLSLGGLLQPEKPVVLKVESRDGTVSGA
Chain of UniProt P61073 (whole entry, looked up): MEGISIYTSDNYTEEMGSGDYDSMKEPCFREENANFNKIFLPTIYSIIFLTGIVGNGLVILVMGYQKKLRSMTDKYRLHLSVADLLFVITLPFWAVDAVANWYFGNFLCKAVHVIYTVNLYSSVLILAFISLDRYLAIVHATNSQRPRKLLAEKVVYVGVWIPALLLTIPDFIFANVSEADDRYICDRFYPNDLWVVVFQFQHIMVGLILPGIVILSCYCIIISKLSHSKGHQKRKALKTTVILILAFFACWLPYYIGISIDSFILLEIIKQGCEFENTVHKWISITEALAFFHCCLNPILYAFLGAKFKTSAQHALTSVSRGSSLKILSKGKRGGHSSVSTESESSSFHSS

| Compound | tested on | assay | test system | conditions | scale | endpoint | result |
| --- | --- | --- | --- | --- | --- | --- | --- |
| O=C(O)CCC(NP(=O)(O)OCCC[C@@H](NC(=O)CCC(NC(=O)CCCCCNC(=O)c1ccc([18F])cc1)C(=O)O)C(=O)O)C(=O)O (stereo partly drawn) | CWR22Rv1 tumour model | – | host not given, blood | intravenous, 2 h, tumour-bearing | – | tracer uptake | 0.04 %ID/g |
| O=P(O)(O)Oc1ccc(Oc2ccc(S(=O)(=O)CC3CS3)cc2)cc1 (racemic) | – | – | mouse, plasma | intravenous, 7.8 mg/kg, single dose | – | Vd | 0.185 L/kg |
| CCC(=O)N(C)c1ccc(Cl)c(Cl)c1 | Escherichia coli | Ames test | WP2 uvrA | 5.00 mg/plate, without S9 activation | – | revertants | 0 revertants/plate |
| CC(C)(O)c1ccccc1CC[C@H](c1cccc(/C=C/c2ccc3ccc(Cl)cc3n2)c1)S(=O)(=O)CC1(CC(=O)O)CC1 | Cytochrome P450 3A4 (CYP3A4, Homo sapiens, UniProt P08684) | inhibitor | – | 10 µM, pH 7.4 | – | inhibition | < 0% |
| COc1ccc(CNc2nc(N3CCC[C@H]3CO)ncc2C(=O)NNC(=O)c2cnc(N3CCC[C@H]3CO)nc2NCc2ccc(OC)c(Cl)c2)cc1Cl | Salmonella typhimurium | – | TA98 | 125 µg/plate, 48 h | – | revertant count | 28 ± 9 |
| O=C(O)CCC(NP(=O)(O)OCCC[C@@H](NC(=O)CCC(NC(=O)c1ccc([18F])cc1)C(=O)O)C(=O)O)C(=O)O (stereo partly drawn) | CWR22Rv1 tumour model | – | host not given, liver | intravenous, 2 h, tumour-bearing | – | tracer uptake | 0.5 %ID/g |
| CN(C)CC1CCCCC1(O)c1cccc(O)c1 (stereo not drawn) | P-glycoprotein | – | Caco-2 TC7 | 1 µM, 3 h, pH 6.8 apical, 7.4 basolateral, with: cyclosporin A 10 µM | – | Papp A to B | 7.3 ± 0.2 ×10⁻⁶ cm/s |
| O=C(N=P12CN3CN(CN(C3)C1)C2)c1ccccn1.[Cl][Pd][Cl] | – | NMR | DMSO | room temperature | – | stability time | > 7 days |
| O=C(O)CCC(NP(=O)(O)OCCC[C@@H](NC(=O)CCC(NC(=O)CCCCCNC(=O)CCCCCNC(=O)c1ccc([18F])cc1)C(=O)O)C(=O)O)C(=O)O (stereo partly drawn) | CWR22Rv1 tumour model | – | host not given, blood | intravenous, 1 h, tumour-bearing | – | tracer uptake | 0.12 %ID/g |
| O=C1c2ccccc2-c2c1c1c(O)cc(-c3ccccc3)cc1n2Cc1ccccc1 | ABCG2 (Homo sapiens, UniProt Q9UNQ0) | mitoxantrone efflux, inhibitor, flow cytometry | HEK293 transfected with ABCG2 | 10 µM, 30 min, with: mitoxantrone 5 µM | reference: Ko143 1 µM | inhibition | 56% |
| Nc1nc2c([C@@H]3O[C@@H]4COP(=O)(O)O[C@H]5[C@@H](O)[C@H](c6snc7c(=O)[nH]c(N)nc67)O[C@@H]5COP(=O)(O)O[C@H]4[C@H]3O)snc2c(=O)[nH]1 | – | – | water | – | – | emission maximum | 456 nm |
| COc1ccc(CNc2nc(N3CCC[C@H]3CO)ncc2C(=O)NN)cc1Cl | Salmonella typhimurium | – | TA1535 | 250 µg/plate, 48 h, with: rat liver S9 | – | revertant count | 54 ± 2 |
| O=C1c2c(ccc(O)c2O)CN1Cc1ccc(F)c(Cl)c1 | HOS | ATPlite | – | 48 h | – | CC50 | 5.2 ± 0.2 µM |
| COc1cc(C(=O)NCCOCCOCCOCCNC(=O)c2ccc([18F])nc2)ccc1NC(=O)C1NC(CC(C)(C)C)C(C#N)(c2ccc(Cl)cc2F)C1c1cccc(Cl)c1F (stereo not drawn) | SJSA-1 tumour model | – | host not given, kidney | 1 h, tumour-bearing | – | tracer uptake | 3.95 %ID/g |
| CN1C(=O)[C@@H](Cc2ccc(O)cc2)NC(=O)CNC(=O)[C@H](Cc2ccc3ccccc3c2)NC(=O)[C@H](CCCNC(=N)N)NC(=O)[C@H]1CCCNC(=O)c1ccc(CNC(=O)CN2CCN(CC(=O)O)CCN(CC(=O)O)CCN(CC(=O)O)CC2)cc1 [gallium-68 labelled] | CXCR4 (Homo sapiens, UniProt P61073) | PET imaging | human, bladder | – | – | SUVmean | 36.4 |
| Nc1nc2c([C@@H]3O[C@@H]4COP(=O)(O)O[C@H]5[C@@H](O)[C@H](n6cnc7c(=O)[nH]c(N)nc76)O[C@@H]5COP(=O)(O)O[C@H]4[C@H]3O)snc2c(=O)[nH]1 | – | – | water | – | – | emission quantum yield | 0.048 |
| CCCCCc1cc(OC(=O)C(NC(=O)CCC(=O)O)C(C)C)c2c(c1)OC(C)(C)C1CCC(C)=CC21 (stereo not drawn) | – | – | isolated rabbit cornea | 3 h, pH 7.4, 34 °C, donor Cremophor RH sample A 0.05% | – | Papp | 3.2 ± 0.21 ×10⁻⁶ cm/s |
| CC[N+](C)(CC)Cc1cc(Nc2ccnc3cc(Cl)ccc23)ccc1O | Vero WNV replicon cells | – | – | 24 h | – | CC50 | 23.2 ± 10.8 µM |
| C[C@@](O)(C(F)F)[C@H](NC(=O)c1ccc(C#CC#CC2CC2)cc1)C(=O)NO | UDP-3-O-acyl-N-acetylglucosamine deacetylase (Escherichia coli K-12, UniProt P0A725) | rapid equilibrium dialysis | mouse plasma | 10 µM, without LpxC in buffer | – | buffer to plasma concentration ratio | 0.033 ± 0.001 |
| Nc1nc2c([C@@H]3O[C@@H]4COP(=O)(O)O[C@H]5[C@@H](O)[C@H](c6scc7c(=O)[nH]c(N)nc67)O[C@@H]5COP(=O)(O)O[C@H]4[C@H]3O)scc2c(=O)[nH]1 | – | – | water | – | – | emission quantum yield | 0.077 |
| CN[C@](C)(C[18F])C(=O)O | MDA-MB-468 tumour model | – | host not given, muscle | 30 min, tumour-bearing | – | tracer uptake | 2.3 %ID/g |

Repeated from above:
| Compound | tested on | assay | test system | conditions | scale | endpoint | result |
| --- | --- | --- | --- | --- | --- | --- | --- |
| O=C1c2ccccc2-c2c1c1c(O)cc(-c3ccccc3)cc1n2Cc1ccccc1 | ABCG2 (Homo sapiens, UniProt Q9UNQ0) | mitoxantrone efflux, inhibitor, flow cytometry | HEK293 transfected with ABCG2 | 10 µM, 30 min, with: mitoxantrone 5 µM | reference: Ko143 1 µM | inhibition | 56% |
| Nc1nc2c([C@@H]3O[C@@H]4COP(=O)(O)O[C@H]5[C@@H](O)[C@H](c6snc7c(=O)[nH]c(N)nc67)O[C@@H]5COP(=O)(O)O[C@H]4[C@H]3O)snc2c(=O)[nH]1 | – | – | water | – | – | emission maximum | 456 nm |
